Experimental data pooled from the literature.
Lines come from different studies, so protocols differ. Numbers after ± are the reported error.

O=C(C1CCCCC1)N1CC(=O)N2CCc3ccccc3[C@H]2C1
Cmax (healthy men, plasma; oral, 40 mg/kg racemic praziquantel, geometric mean, together with: ritonavir 100 mg/day for 14 days): 2340 ng/mL

Cc1nc(-c2ccc(OCC(C)C)c(C#N)c2)sc1C(=O)O
Cmax (healthy Chinese adult volunteers, plasma; oral, 20 mg single dose, fed): 856 ± 254 ng/mL

CNC(=O)c1cc(Oc2ccc(NC(=O)Nc3ccc(Cl)c(C(F)(F)F)c3)c(F)c2)ccn1
Cmax (metastatic colorectal cancer patients, plasma; oral, dose not given, together with: esomeprazole 40 mg 3 h before): 4700 ng/mL

CC(C)NCCCn1c(Sc2cc3c(cc2I)OCO3)nc2c(N)ncnc21
Cmax (patients, plasma; intravenous, ≥266 mg/m2): > 3400 nM

CC1=C2C[C@H]3[C@@H](CC[C@@H]4C[C@H](NS(C)(=O)=O)CC[C@@]43C)[C@@H]2CC[C@@]2(C1)O[C@@H]1C[C@H](C)CN[C@H]1[C@H]2C
Cmax (patients, plasma; oral, 30 mg daily, day 22, cycle 1): 27.2 ng/mL

C[C@@H](N)c1cc(Cl)ccc1Cn1c(=S)[nH]c(=O)c2[nH]ccc21
Cmax (healthy Chinese volunteers, plasma; oral, 5 mg once daily, day 1, multiple dose, geometric mean): 21.8 nM

Cc1ccnc2c1NC(=O)c1cccnc1N2C1CC1
Cmax (olive baboon female, serum; oral, 10 mg/kg, solution): 594 ± 371 ng/mL

CC(C)=CCC[C@](C)(O[C@@H]1O[C@H](CO)[C@@H](O)[C@H](O)[C@H]1O)[C@H]1CC[C@]2(C)[C@@H]1[C@H](O)C[C@@H]1[C@@]3(C)CC[C@H](O[C@@H]4O[C@H](CO)[C@@H](O)[C@H](O)[C@H]4O)C(C)(C)[C@@H]3CC[C@]12C
Cmax (LC-MS/MS; healthy volunteers, serum; oral, 3 g fermented red ginseng): 2.79 ± 4.29 ng/mL

CCC[C@H](N[C@@H](C)C(=O)N1[C@H](C(=O)O)C[C@@H]2CCCC[C@@H]21)C(=O)O
Cmax (healthy Chinese volunteers, whole blood; oral, 4 mg perindopril tert-butylamine with indapamide 1.25 mg, single dose, fasting): 3.26 ± 1.1 ng/mL

NC(=O)c1cnc2[nH]ccc2c1N[C@@H]1[C@@H]2CC3C[C@H]1C[C@@](O)(C3)C2
Cmax (Japanese, mild hepatic impairment, plasma; oral, 150 mg single dose, mean): 372 ng/mL

COc1cc(OC)c(/C=C/S(=O)(=O)Cc2ccc(OC)c(NCC(=O)O)c2)c(OC)c1
Cmax (cancer patients, phase I, plasma; oral, 560 mg twice daily, day 21 cycle 1): 2540 ± 2350 ng/mL

CC(C(=O)O)c1ccc(-c2ccccc2)c(F)c1 (centres unmarked)
Cmax (healthy volunteers, plasma; oral, 100 mg, geometric mean, together with: control beverage 250 mL): 9100 ng/mL

Cc1ccc(Sc2ccccc2N2CCNCC2)c(C)c1
Cmax (healthy women, plasma; oral, 10 mg once daily, fed, day 1): 3.4 ng/mL

CC(C)(Sc1ccncc1-c1ccc(C#N)c2ccccc12)C(=O)O
Cmax (male, plasma; oral, 15 mg, moderate renal impairment, fasted): 29 ng/mL

Cc1c(Cl)c(C)[n+]([O-])c(Cl)c1-c1noc(-c2cc(O)c(O)c([N+](=O)[O-])c2)n1
Cmax (Parkinson's disease patients, plasma; oral, 50 mg, day 14, steady state, once daily): 459 ± 252 ng/mL

CC(C)(Sc1ccncc1-c1ccc(C#N)c2ccccc12)C(=O)O
Cmax (healthy Japanese male subjects, plasma; oral, 5 mg single dose, day 1, fasted, geometric mean): 7.3 ng/mL

CO[C@H]1C[C@@H]2CC[C@@H](C)[C@@](O)(O2)C(=O)C(=O)N2CCCC[C@H]2C(=O)O[C@H]([C@H](C)C[C@@H]2CC[C@@H](OP(C)(C)=O)[C@H](OC)C2)CC(=O)[C@H](C)/C=C(\C)[C@@H](O)[C@@H](OC)C(=O)[C@H](C)C[C@H](C)/C=C/C=C/C=C/1C
Cmax (HPLC-MS/MS; Japanese patients, whole blood; oral, 20 mg, day 26, cycle 1, geometric mean): 155 ng/mL

Some of these lines once more:
CC(C(=O)O)c1ccc(-c2ccccc2)c(F)c1 (centres unmarked)
Cmax (healthy volunteers, plasma; oral, 100 mg, geometric mean, together with: control beverage 250 mL): 9100 ng/mL

Cc1ccc(Sc2ccccc2N2CCNCC2)c(C)c1
Cmax (healthy women, plasma; oral, 10 mg once daily, fed, day 1): 3.4 ng/mL
